Assay results collected from several papers.
Numbered parts are unrelated; each lists some results of a single study.

Block 1
Target: Sal-like protein 4, full length isoform A (SALL4, Homo sapiens, UniProt Q9UJQ4, residues 1-1053)
UniProt Q9UJQ4, sequence (whole entry, looked up): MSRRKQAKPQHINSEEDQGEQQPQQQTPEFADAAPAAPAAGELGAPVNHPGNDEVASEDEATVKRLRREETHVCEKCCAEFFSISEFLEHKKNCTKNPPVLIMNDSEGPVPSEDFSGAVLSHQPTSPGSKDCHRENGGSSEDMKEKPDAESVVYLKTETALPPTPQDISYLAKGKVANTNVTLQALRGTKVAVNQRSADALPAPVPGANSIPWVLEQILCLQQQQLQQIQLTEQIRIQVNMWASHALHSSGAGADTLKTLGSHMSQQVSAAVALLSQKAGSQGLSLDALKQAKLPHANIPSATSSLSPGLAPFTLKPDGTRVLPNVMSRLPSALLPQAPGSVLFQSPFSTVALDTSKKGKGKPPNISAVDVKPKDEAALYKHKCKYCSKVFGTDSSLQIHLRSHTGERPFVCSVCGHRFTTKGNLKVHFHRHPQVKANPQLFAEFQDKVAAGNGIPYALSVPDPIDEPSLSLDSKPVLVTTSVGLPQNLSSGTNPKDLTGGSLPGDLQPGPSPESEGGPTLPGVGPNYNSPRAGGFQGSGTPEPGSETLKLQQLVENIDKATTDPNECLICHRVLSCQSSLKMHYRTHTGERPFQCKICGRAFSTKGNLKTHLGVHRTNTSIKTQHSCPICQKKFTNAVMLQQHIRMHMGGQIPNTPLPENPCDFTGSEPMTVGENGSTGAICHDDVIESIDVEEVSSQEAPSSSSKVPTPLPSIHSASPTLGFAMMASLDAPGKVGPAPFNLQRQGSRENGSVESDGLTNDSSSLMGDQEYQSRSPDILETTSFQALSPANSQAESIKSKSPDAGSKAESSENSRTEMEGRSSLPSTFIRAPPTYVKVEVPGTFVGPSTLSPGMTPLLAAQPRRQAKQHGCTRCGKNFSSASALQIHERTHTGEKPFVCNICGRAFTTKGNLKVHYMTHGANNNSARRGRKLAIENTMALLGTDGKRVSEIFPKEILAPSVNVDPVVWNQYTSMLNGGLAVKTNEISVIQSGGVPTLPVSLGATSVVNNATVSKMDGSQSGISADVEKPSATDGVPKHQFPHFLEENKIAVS
Method: universal PBM
Form: double-stranded DNA, one strand shown
Medium: in vitro
Concentration: 600 nM
Setting: 8-mer, flanks averaged, mean of replicates
Reading: higher = stronger binding
Oligonucleotide | E-score
ACAATTCA | 0.169
ATCGTCTC | 0.0273
ATGATCGA | 0.168
TCCTCAAA | 0.082
GAAATTTC | -0.07
CCGGTGCA | -0.283
AATATGTC | 0.303
TCGATCAA | -0.0231
GGTGATAC | -0.16
GTTTACCA | 0.0669
ACGTACAA | 0.126
AGTGGATG | -0.185
AGTCGCGA | -0.0676
CGCACGAC | -0.242
GGGCAACA | -0.0881
TAGAAGGA | -0.04
ACTCCCAG | -0.106
GGAGGCAA | -0.259
CTACCGCA | -0.00628
AAAACTCT | -0.00069
GAACACCC | -0.285
GACTAACA | 0.13
AGTTGACC | -0.202
GTTACCCA | -0.141
CAGCCGAA | -0.2

Block 2
Substance: PhoQ, residues 284 288 289 292 302 303 TLMATV
Method: Sort-seq
Item: YFP reporter
Medium: E. coli
Setting: PhoQ-PhoP variant library
Together with: 10 µM Mg2+
Relative to: high Mg2+ state
Reading: higher = stronger signaling
target | fold induction
PhoP, residues 12 14 15 18 19 TPWTL (Escherichia coli, UniProt P23836) | 26.5
PhoP, residues 12 14 15 18 19 NFFVT (Escherichia coli, UniProt P23836) | 2.57
PhoP, residues 12 14 15 18 19 LHHYF (Escherichia coli, UniProt P23836) | 13.5
PhoP, residues 12 14 15 18 19 VGHWL (Escherichia coli, UniProt P23836) | 1.39

Block 3
Target: Ras GTPase-activating protein-binding protein 1, full length (G3BP1, Homo sapiens, UniProt Q13283)
UniProt Q13283, sequence (whole entry, looked up): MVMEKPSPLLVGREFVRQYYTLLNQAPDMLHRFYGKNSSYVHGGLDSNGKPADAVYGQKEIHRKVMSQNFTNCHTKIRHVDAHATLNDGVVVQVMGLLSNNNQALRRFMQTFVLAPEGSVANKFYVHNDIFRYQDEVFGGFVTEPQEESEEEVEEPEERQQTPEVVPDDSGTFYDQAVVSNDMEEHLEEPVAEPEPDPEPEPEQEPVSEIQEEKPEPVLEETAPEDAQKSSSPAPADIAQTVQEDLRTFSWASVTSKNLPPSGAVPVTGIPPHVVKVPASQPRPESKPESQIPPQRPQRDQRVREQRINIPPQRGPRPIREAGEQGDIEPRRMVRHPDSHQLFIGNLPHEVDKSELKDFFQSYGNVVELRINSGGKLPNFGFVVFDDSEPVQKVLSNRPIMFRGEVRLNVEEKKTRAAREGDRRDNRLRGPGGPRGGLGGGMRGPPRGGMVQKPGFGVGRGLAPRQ
Method: RNA Bind-n-Seq
Form: RNA
Medium: in vitro
Concentration: 200 nM
Setting: whole 134-nt RNA, ends assumed
Together with: 150 mM LiCl
Relative to: input library
Reading: higher = stronger binding
Library: 7-deaza-guanosine replaces G
Constant ends, left off below: GGGAGUUCUACAGUCCGACGAUC … UGGAAUUCUCGGGUGUCAAGG
Oligonucleotide | log2 enrichment
UGUGCGGGAGACAGGCGCCAACGGCACCUCUUUCAGUGUCCGCAAGACAGCCUACUGCGACAUCCACACGCCUCCAGGUUCAGCACGCCG | -0.299
CUCAAGUCCUGUGCUACACAUCGUAUGUACCGAAUCGGAAGGGAAGGGAAGGGAAAGUAUUAUGUUACGCCGUUCGGAUCUGCACUUCCA | -0.0793
UCCUGUGCUACACAUCGUAUGUACCGAAUCGGGGAAAAAAAGGGGAGGGGAAAAAGGGGAAAGUAUUAUGUUACGCCGUUCGGAUCUGCA | -0.325
UGGGAGGUGGAUUUUGUUUAUUUUUUUAGCUCAUUUCCAGGGGUGGGAAUUUUUUUUUAAUAUGUGUCUUGAAUAAAGUUGUUUUUGAAA | -0.0735
UCAAGUCCUGUGCUACACAUCGUAUGUACCGAAUCGGCCCGGGCCCGGGGCCCGGAAAGUAUUAUGUUACGCCGUUCGGAUCUGCACUUC | -0.581
UCAAGUCCUGUGCUACACAUCGUAUGUACCGAAUCGGUUUGGAAAAAGGAAAGGAAAGUAUUAUGUUACGCCGUUCGGAUCUGCACUUCC | -0.701
UCCUGUGCUACACAUCGUAUGUACCGAAUCGGGCCCCCGGGGCCCCCGGGGCCCCCGGGAAAGUAUUAUGUUACGCCGUUCGGAUCUGCA | -2.07
ACCAUGCAGGUGGGCAUCUUUGGGAAGUGGGGCAAGGGGGGGAUAGGGAGGGCGGUAACACUUUGGGAACAGGUGGUCCCAGGUCGUUUC | 0.0157
CAAGUCCUGUGCUACACAUCGUAUGUACCGAAUCGGUUUGGAAAAAAAGGUUUGGAAAGUAUUAUGUUACGCCGUUCGGAUCUGCACUUC | -2.55
CACAGACAACACGCACCCACACAGACACAGAGGGUAGGGGUUGGGAUGGGGACAGGGUGCACAGCAGGGCGGGGUAGGACCCCAGCCCCU | -0.678
ACCAUGCAGGUGGGCAUCUUUGGUAAGUGGGGCAAGGGGGGGAUAGGGAGGGGGGUAACACUUUGGGAACAGGUGGUCCCAGGUCGUUUC | 0.295

Block 4
Target: RNA binding protein fox-1 homolog 2, RRM domain, GST-SBP tag (RBFOX2, Homo sapiens, UniProt O43251-10, residues 100-194)
Method: RNA Bind-n-Seq
Form: RNA
Medium: in vitro
Concentration: 365 nM
Setting: natural RNA segment, single round, ends assumed
Relative to: no-protein control
Reading: higher = stronger binding
Constant ends, left off below: GGGAGUUCUACAGUCCGACGAUC … UGGAAUUCUCGGGUGCCAA
Residues (chain): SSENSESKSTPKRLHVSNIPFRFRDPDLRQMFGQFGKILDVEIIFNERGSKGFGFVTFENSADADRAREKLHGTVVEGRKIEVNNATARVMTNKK
Oligonucleotide | RBNS enrichment (R)
CCAGACAGAAGCUCAGGGUGUGUCUAGGAAGCAUUAGUUUUAAAAAGCUGAGUGAUUUUUUUUUUUUCAUCAAUCCACACAUUUUUGUCCAUUGCUGUAAGAGAAGAAAA | 0.655
CUCUGGCCUUCCCCAUAUUACACACCAGCACUUUAUAUAUUUUUGGCUCACAGGAGGAGUCUAGGGUAGGGACUGGGGUUUCUGCUUUGGGUAGUAGCCUUGUUAUUUGA | 1.35
UGCUUGUAAUAGGUAGGCAAUUCCUUGAUUACAGGAAGCUUUUAUAUUACUUGAGUAUUUCUGUCUUUUCACAGAAAAACAUUGGGUUUCUCUCUGGGUUUGGACAUGAA | 0.405
UUAAGCGGGCUCCUGACAAUGAGAUGUGAACCUAGAGCUUUCCUAGUGAUGCUGGCUCUGCAGUUCCCUCUUGCCCAUCCCCGAGUGGGGACAAUUUCCCCAUCCCCAAG | 0.282
CUCAAGAAAUUUUGAACUGAUGAGGGAGGAAGACUGGGGAAAGAAAGAAAGCACACACAGGUACUGGACAGAGGGAUUCUGGUAUGACCUGUGGCUGUGAGGUCUCAUAU | 2.28
AGAGUUAAGGUCUUAAAAUGUAUUUUGUCCUAAAUAAACUGCGUUUGGUAAACCUUGGCUGGCAAGAGUUCUGGCUCUCACCCAGUAUUUCCUGGUAUUUGUUUUAAAGU | 0.443
GUUUUCCACAAGACUGAACAACGUGUAUUUACACGAGGGUAGACGGCAGAUGCCUGACAGAGAGUGGGUUGGCAGACAACACACUAGCAUUUUCACGGGUGUGGGCACAU | 0.736
GCGAGUUCUCGGUUUUGCCGGUUUCUUUAGUUCUUUACUGUCACUGUCAUGUAAUCAGCUAAUUCUCUGUGGAUGUUGCUGUAAAGUAUGCAUGUUCCUUUCAUGUGUAU | 0.39
GAAAUAAGUACCUGUGGUGAACAAGUUUCUACUGUAGUUGGAGAUCAUUAGAAUUGAAUUCAGUUUCUCUUAGAAUAUAAUCAGGUAUAAACCUAAGUUAAACUUUUUCC | 0.39
AUGCUUAAGAUUUGAUUUUUACUUUUCAAAGCAACAUUUUGUUGAAUUUUUUUCUGCACAGCUUUCCAAAAUAAAAAGCAGAAGUAUAAAAACCCAAACAAGUCCACCAC | 0.424
CCCGAGCCCUGACUCCUGGACUCCGGAGGACUGAGCCCCCACCGGAACUGGGCUGGCGCUUGGAUCUGGGGUGGGAGUAACAGGGCAGAAAUGAUUAAAAUGUUUGAGCA | 0.883
UUUGCUGCUUUUGUUCGCAUUGGAACGUUGGACAUGCCAUAUGAUACUGGCUUAGUAAUCAAUACCAGUAAUUACCAUAGAACUUUAUCUGACUACCCAACCAUAUCAAA | 0.202

Block 5
Target: Interferon regulatory factor 7, full length, phosphomimetic (IRF7, Homo sapiens, UniProt Q92985, residues 1-503, S101K/S471D/S472D/S475D/S476D/S477D/S483D/S484D/S487D)
Method: protein-binding microarray
Form: double-stranded DNA, one strand shown
Medium: in vitro
Concentration: 250 nM
Setting: 60-bp whole probe
Together with: salmon DNA 0.4 mg/ml
Relative to: random background probes
Reading: higher = stronger binding
Constant ends, left off below: GCCTAGCAC … GTCTTGATTCGCTTGACGCTGCTG
Construct (chain): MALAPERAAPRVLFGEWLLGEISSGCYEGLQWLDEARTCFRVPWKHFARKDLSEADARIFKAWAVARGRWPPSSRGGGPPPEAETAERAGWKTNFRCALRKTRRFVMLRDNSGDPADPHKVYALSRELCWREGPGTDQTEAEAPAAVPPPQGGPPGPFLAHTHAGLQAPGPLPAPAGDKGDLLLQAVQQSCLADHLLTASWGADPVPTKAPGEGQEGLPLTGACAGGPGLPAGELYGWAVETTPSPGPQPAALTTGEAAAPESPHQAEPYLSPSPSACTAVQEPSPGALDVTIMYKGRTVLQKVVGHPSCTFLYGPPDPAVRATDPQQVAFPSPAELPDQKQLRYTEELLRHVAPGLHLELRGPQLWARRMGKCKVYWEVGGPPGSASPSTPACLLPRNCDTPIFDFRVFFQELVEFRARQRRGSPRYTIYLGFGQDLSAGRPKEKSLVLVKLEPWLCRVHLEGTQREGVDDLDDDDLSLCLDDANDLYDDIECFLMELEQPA
Oligonucleotide | log fluorescence [z-score]
TTAGGTATCGGGTATCCGTTAGTGCTA | 0.945
TTAGGTCTCGGTACCGGTTAGTGCTAG | 1.03
GACGGTCTCCTTCACCTGACGTGCTAG | -0.174
TTACGACTGCTTATCCTTTAGTGCTAG | -0.243
GACGGTATCGGGTATCGGTACGTGCTA | 0.517
GACGAACGGGGGACTGGAGACGTGCTA | 0.501
TTAGGTATCGGTTTCCGTTAGTGCTAG | 7.52
TTAGGTTTCGGTATGGGTTAGTGCTAG | 10.2
TTAGGTAACGGTTTCGGTTAGTGCTAG | 9.55
TGGGCTCTAGGTTCTCTGAAGGTGCTA | -0.23
TCATCTTTGCTTCACCCACTGTGCTAG | 0.511
GACGGTATCGGTCTCGGGAGGTGCTAG | 0.425
GACGATCTCAGACTGGAGACGTGCTAG | -0.276
GATGGCCTCTTGCTCAGCCCGTGCTAG | -0.918
TTAGGTCTCGGTATCGGGTAGTGCTAG | 2.32
GACGAACTGAGACTGGGGACGTGCTAG | -0.189

For quick reference, copied from above (block 5):
Oligonucleotide | log fluorescence [z-score]
GACGAACGGGGGACTGGAGACGTGCTA | 0.501
TTAGGTATCGGTTTCCGTTAGTGCTAG | 7.52
TTAGGTTTCGGTATGGGTTAGTGCTAG | 10.2
TTAGGTAACGGTTTCGGTTAGTGCTAG | 9.55
TGGGCTCTAGGTTCTCTGAAGGTGCTA | -0.23
